# Published values pooled from the literature.
# Numbered parts are unrelated; each lists some results of a single study. Positions count from the first letter of the parent shown.

# Series 1
# Target: RING finger protein unkempt homolog, zinc fingers 1-6, GST-SBP tag (UNK, Homo sapiens, UniProt Q9C0B0, residues 30-357)
# Technique: RNA Bind-n-Seq
# Molecule type: RNA
# Sample: in vitro
# Tested at: not given
# Notes: RNA with constant flanks, ends assumed
# Baseline: input RNA pool
# Reading: higher = stronger binding
# Shared flanks, not repeated: GGGAGUUCUACAGUCCGACGAUC … CAACAGAGGAUUGAGCAUCA
# Target sequence (chain): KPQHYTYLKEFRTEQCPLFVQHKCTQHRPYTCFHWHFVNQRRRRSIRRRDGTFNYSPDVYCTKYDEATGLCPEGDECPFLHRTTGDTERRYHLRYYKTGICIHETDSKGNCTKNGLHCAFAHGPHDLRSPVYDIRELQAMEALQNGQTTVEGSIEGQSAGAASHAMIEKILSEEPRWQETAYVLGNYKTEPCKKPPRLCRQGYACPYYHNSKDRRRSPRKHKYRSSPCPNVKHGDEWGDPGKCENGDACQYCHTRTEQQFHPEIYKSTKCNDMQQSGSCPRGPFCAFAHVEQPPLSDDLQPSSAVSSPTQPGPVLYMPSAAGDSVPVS
Oligonucleotide,bound/input enrichment [ratio]
CUCCGAGCUGCUAAUAUUCUUGUAGGAGAAAAUCUUAUAUGCAAAAUAGCAGAUUUUGGCUCCGCAAGAUUAAUUGAAGACAAUGAAUACACGGCAAGACAAGGUGCAAAAUUUCCAAUC,0.221
CUGGGUAUUAUUUCUCGAGCUGUUAAACACCUUUUUAAGAGUAUUGAAGAAAAAAAACACACCGCAAUUAAAAAUGGGCUUCCUGCUCCAGAUUUUAAAGUGAAUGCCCAAUUCUUAGAG,0.569
AAUAGUGGAGAAGAAUUAGAAUCCUACAAGGGACACUUUGGUCCUAUUCACUGUGUGAGAUUCCGUCCUGAUGGAGAACUCUAUGCCAGUGGUUCAGAAGAUGGAACAUUGAGACUAUGG,0.305
AGCUAUGAUGAGAGCUAUUAUCAUCUGUGGUGGGAAAAGCUAUGUAAAUAGGUAGAUUGUACCGAGAGACUAUCUUGUGUUGUGCCUGUAUGAAUUUUUAAAAGUUGUUGACUGGAUUUU,0.237
UCCAUGGAUUCUGAGGUCUUGGAGAUGUCACCUGAAAAGUCAGAUGGAAUAGUGGAGGGGACCGAUGUAAAUGGACCAAAAGCACAGCUGAUGCUGCGGUACCCAGAUGGAAAAAGGGAA,0.486
GAGAAGUGGUCAGUUGCUAAGGAAGUGGAUUUCCCAGUAGGGGUUUCUGCACCUCACCUGUACCGUCGUUCUGCGCAUGUCCCCCACACAGUCCCCACUGUAUUUACCUGUUCUACUUGU,0.179
AGCCCAAAUCAUGCGGUGGUGCACGGCAACCUGGCUUGUGUGUACUACGAGCAAGGCCUAACCGACCUGGCCAUUGAUACCUACAGGAGAGCUAUCGAACUGCAACCCCAUUUCCCCGAU,0.0567
AGAGAAGAGUUGGUUGAUCGUGUUUUUGAUGAAAGCCUCAACUUCCGAAAGAUUCCUCCAUCCGUUCAUUCCAAAACACCAGAAGGAAACAACGGUCGAUCUGGUGAUCCAAGACCUCAA,0.116
AAUAUCAACUAAAAUAUCAUAGUUCUGUGGUAGACAUUGUUUUAUAAUGAAAUAACUGCAACCCGAGAAAACUGUAUAAAAACAUUAAAUUGUCAGUAUUUUUGUAAGGUUCCAUUUUGU,0.482
CCUGAAGAAAACCCUGGGUCACCUUCUAGAGAAUCACCUCUUUCAGCACCUUCAGAUCAUUCUCCGAUCCAAGGUGUAAUACCUUUUCAGUGUAUCAUGGGUGGUCUUGUUCAUCCCCUU,0.0878
AUUGGGACCAGCUCUCUGAAUAGAAAUAGUAGUAAAAAAACCAAGCAAAAUGAUAUUUGUACCGAAAAAACAGAAGCUAAAUCAUGUAAAGUAAACGCUGCCAGUGUUCCAGGCCCUAAA,10.7

# Series 2
# Target: RNA binding protein fox-1 homolog 2, RRM domain, GST-SBP tag (RBFOX2, Homo sapiens, UniProt O43251-10, residues 100-194)
# Technique: RNA Bind-n-Seq
# Molecule type: RNA
# Sample: in vitro
# Tested at: 365 nM
# Notes: natural RNA segment, single round, ends assumed
# Baseline: no-protein control
# Reading: higher = stronger binding
# Shared flanks, not repeated: GGGAGUUCUACAGUCCGACGAUC … UGGAAUUCUCGGGUGCCAA
# Target sequence (chain): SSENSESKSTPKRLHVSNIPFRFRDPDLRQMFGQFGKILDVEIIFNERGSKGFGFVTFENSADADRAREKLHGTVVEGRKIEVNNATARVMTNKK
Oligonucleotide,RBNS enrichment (R)
UUUUCGAAAUUGUUUCUAGGACUUUAAAACAUAAUGGUAUAUCCAAAAUUCUUUAUUUCAGAAUGCAACAAUAGAUUCCAUUAAUAUAGACUCAAGAUCAAAACAGCAUA,0.563
UGCUGGUUGUAUUAACAGAGCACAUUUGUCGGGUGAGUCGUGUAUACAAACUUUUUUUUUUUAUCCUGUUUGUUUUAUCUGGGGGUUCGUUCAUUAAACUGACAGAUAUU,0.665
UUUGAUCAGUUGAGUAGUUGCUUAUACAUAGAUUCUUAAAAGAAAAUACUUGUGUUUCUAUUAAAUAUACACUACUAAAUACAUGUUAUGUGACUAGUAUUUAUCCUUUA,0.39
UUUUAUAUCUACAUAUUUGCGGUUAGAAUCCCAUGGAUGUUUCUUCUUUGACUAUAACAAAAUCUGGGGAGGACAAAGGUGAUUUUCCUGUGUCCACAUCUAACAAAGUC,0.481
AUAACAUCAAUUUAGUUACAAUGCAUGUAGUUUGCACAAUGAUUAAAAUGAAUAGGUUUGUGUUUAUAGCCUAUAAUAACUCUAGUUGAAUCAUGUACACAGCAGGAGUG,7.32
AAGAUAUUUCAGUCUAGGAAAGAUUUUCCUUCUCUUGGAAUGUGAAGAUCUGUCGAUUCAUCUCCAAUCAUAUGCAUUGACAUACACAGCAAAGAAGAUAUAGGCAGUAA,0.374
UCUGUAGUUAACAGAACACUGUAAUGUGCCUUGCAGCUUAGUAACUUGUAAUAAAUUCAAUUGAUAUAAUUCUGCCCUGAGUCAGCAAAUUUGUCUUUCUAGGGUUGAAG,4.48
UGGUAUUUCUUACAUGAUUUUUUGUUUUCCUCUGUUGCUAGAUAAAUAGAAACUAAUAAUAGCUCUAUUUCUCUGCCAAUAUAAAAUCUACCUUUCAUAUAAUGCUACAU,0.477
AAUCUUGUUCGGGGACCACCAACGCUUGAAUAUGGCUGAGGAUGCCAUGUUUGCUCUAAAUUAAGACAGCAUUGAUCUCCUGGAGGCUGGUUCUGCUGCCUCUACACAGG,0.279
CACGGCACGCAGCCAGCAAGUUGUUUUUAAAUGUUAAUAUAGAAAACAGUGAAGGAUUAGCUGAAAAUAUAUGAGCAGGUGACAUUGAGGUUUACUGAAAUAGCCAAUUU,0.509
CCUUUUGAUUAAGAGCCUUUUUUGUUUCUGCUCUUUGUCAGCUUUCAGGGGAGAAGGAGGCCACUGGAAAAUUAUUUCCCUAAGUGCAGGCUGUUGACUGCGUAUGCCAA,1.03
GCUGGUAGGGAAAGACUCUGCACCUGCUGUCUUAGGGAAGAAAUGGUUCAAAUCCAUGUGGUGACAUUGCAUUAGUCUCCCUUUCACUGUUUUCUUAUUCUGUAAUUGUU,3.55

# Series 3
# Target: Histone acetyltransferase KAT6A, both winged helices, GST fusion (KAT6A, Homo sapiens, UniProt Q92794, residues 1-181)
# Technique: protein binding microarray
# Molecule type: double-stranded DNA, one strand shown
# Sample: in vitro
# Tested at: not given
# Notes: 8-mer, flanks averaged, mean of 2 arrays, mostly near background
# Baseline: not given
# Reading: higher = stronger binding
# Construct (chain): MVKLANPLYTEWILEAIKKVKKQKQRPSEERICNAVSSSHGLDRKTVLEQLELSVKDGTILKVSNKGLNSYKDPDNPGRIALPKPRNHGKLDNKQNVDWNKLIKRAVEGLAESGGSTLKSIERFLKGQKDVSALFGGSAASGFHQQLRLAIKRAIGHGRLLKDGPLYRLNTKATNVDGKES
Oligonucleotide,E-score
ACTCCGCA,-0.0257
GGGCGGTA,0.162
CCCACGTA,-0.194
ATAACCGA,0.0425
CATCCGCG,0.262
GTTATCGA,-0.0641
CCGGTGCC,0.191
GATATAGC,0.0569
AGGAGGAA,-0.128
CATTTTTA,0.0255
AGTACTGA,-0.0545
GGCTTCTA,-0.0212
ACTCTGTC,-0.0423
TAAAGTAA,-0.00592
ACAATCCG,0.181
ATGATTAG,-0.0474
CAAAGGTG,-0.105
GGAAATCC,0.0749
AAAACGTA,-0.0938
ACAGAAGC,-0.0571
CCATGACA,-0.104
TCTCGACA,-0.096
GAACGTTA,0.149

# Series 4
# Target: Prothrombin, mature alpha-thrombin (F2, Homo sapiens, UniProt P00734)
# Technique: aptamer microarray, sandwich
# Molecule type: DNA with 2'F-ANA
# Sample: in vitro
# Tested at: 200 nM
# Notes: whole 15-mer aptamer, many near background
# Together with: Cy3 exosite-II aptamer, 400 nM
# Reading: higher = stronger binding
# Oligonucleotide: GGTTGGTGTGGTTGG
Modification,mean fluorescence intensity [a.u.]
2'F-ANA at 1 2 3 5 6 7 8 13 15,54.7
2'F-ANA at 2 3 6 7 9 12 13 15,723
2'F-ANA at 1 2 4 5 6 7 14 15,49.2
2'F-ANA at 5 7 8 10 12 13 15,124
2'F-ANA at 7 8 9 10 11 14,110
2'F-ANA at 2 3 5 7 9 10 11 13,54.7
2'F-ANA at 2 4 5 6 8 10 12 15,49.4
2'F-ANA at 2 4 5 6 7 8 15,87.1
2'F-ANA at 1 2 7 12 13 14,67.8
2'F-ANA at 4 7 9 10,87.2
2'F-ANA at 1 5 6 7 8 9 10 12 15,50
2'F-ANA at 1 2 5 8 10 14 15,44.9
2'F-ANA at 1 2 5 7 8 9 10 11 15,73.5
2'F-ANA at 1 2 4 5 6 7 8 10 12 13,73.2
2'F-ANA at 1 3 7 9 10 11 13,75.3
2'F-ANA at 2 5 7 8 9 10 11 12 14 15,59.6
2'F-ANA at 8 9,582
2'F-ANA at 2 4 5 7 9 10,51.5

# Series 5
# Target: CREBRF, bZIP domain (human)
# Technique: DHFR protein complementation
# Sample: yeast
# Notes: single substitutions, most at no-binding floor
# Baseline: wild-type JUN-FOS pair
# Reading: higher = stronger binding
# Parent: JUN, bZIP domain (human); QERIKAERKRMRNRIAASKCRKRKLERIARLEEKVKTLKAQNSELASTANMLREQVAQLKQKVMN; partner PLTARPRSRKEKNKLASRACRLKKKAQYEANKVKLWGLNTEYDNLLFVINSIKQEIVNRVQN
Variant,binding fitness
A40H,-1.59 natural log
R53Q,-1.47 natural log
A40P,-1.5 natural log
V56G,-1.48 natural log
Q41V,-1.42 natural log
A46Y,-1.48 natural log
N42C,-1.35 natural log
A40R,-1.49 natural log
E32D,-1.28 natural log
K36I,-1.31 natural log
K34T,-1.23 natural log
Q55E,-1.52 natural log
A49V,-1.48 natural log
T48Q,-1.35 natural log
L31Y,-1.25 natural log
Q55P,-1.42 natural log
T37I,-1.53 natural log
S43Y,-1.53 natural log
N42Q,-1.5 natural log
L31K,-1.48 natural log
A40K,-1.37 natural log
Q41N,-1.55 natural log
K36T,-1.27 natural log
A40I,-1.45 natural log
S43W,-1.47 natural log

# Some of these lines once more (series 5):
Variant,binding fitness
N42C,-1.35 natural log
A40R,-1.49 natural log
E32D,-1.28 natural log
K36I,-1.31 natural log
K34T,-1.23 natural log
Q55E,-1.52 natural log
A49V,-1.48 natural log
T48Q,-1.35 natural log
L31Y,-1.25 natural log
Q55P,-1.42 natural log
T37I,-1.53 natural log
S43Y,-1.53 natural log
N42Q,-1.5 natural log
